Measured values from different studies.
Every numbered part comes from another study and shows a few of its results, in no order.

Series 1 — technique: RNA Bind-n-Seq; molecule type: RNA; sample: in vitro; tested at: 200 nM; notes: whole 134-nt RNA, ends assumed; added: 150 mM KCl; relative to: input library; reading: higher = stronger binding; quantity: log2 enrichment
Target: Ras GTPase-activating protein-binding protein 1, full length (G3BP1, Homo sapiens, UniProt Q13283)
UniProt Q13283, sequence (whole entry, looked up): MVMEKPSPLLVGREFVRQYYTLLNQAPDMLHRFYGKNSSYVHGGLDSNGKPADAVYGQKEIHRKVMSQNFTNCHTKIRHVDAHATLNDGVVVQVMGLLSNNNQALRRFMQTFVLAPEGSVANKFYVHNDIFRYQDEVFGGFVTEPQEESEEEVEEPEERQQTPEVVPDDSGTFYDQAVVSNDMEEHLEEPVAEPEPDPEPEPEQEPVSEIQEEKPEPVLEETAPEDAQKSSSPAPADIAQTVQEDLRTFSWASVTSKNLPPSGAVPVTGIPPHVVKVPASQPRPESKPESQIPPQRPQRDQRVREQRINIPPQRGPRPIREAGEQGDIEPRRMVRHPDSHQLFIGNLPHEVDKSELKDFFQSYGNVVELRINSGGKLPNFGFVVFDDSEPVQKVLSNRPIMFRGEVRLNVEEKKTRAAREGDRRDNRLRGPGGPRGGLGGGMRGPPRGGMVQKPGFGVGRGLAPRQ
All sequences stand within: GGGAGUUCUACAGUCCGACGAUC … UGGAAUUCUCGGGUGUCAAGG
Strand = CACAGACAACACGCACCCACACAGACACAGAGGGAAGGGGUUGGGAUAAAGACAGGGUGCACAGCAGGGCGGGGUAGGACCCCAGCCCCU; result = 1.05
Strand = UGGCCCUGGUGGCAUGCGGGGAGGAAGAGGUGGCCUCAUGGAUCGUGGUGGUCCCGGUGGAAUGUUCAGAGAUGGCCGUGGUGGAGACAG; result = 0.408
Strand = UCAAGUCCUGUGCUACACAUCGUAUGUACCGAAUCGGAAAGGGAAAGGAAAGGGGAAAGUAUUAUGUUACGCCGUUCGGAUCUGCACUUC; result = -0.814
Strand = UGGGAGGUGGAUUUUGUUUAUUUUUUUAGCUCAUUUCCAGGGGUGGGAAUUUUUUUUUAAUAUGUGUCAUGAAUAAGGUUGUUUUUGAAA; result = 0.42
Strand = GUCCUGUGCUACACAUCGUAUGUACCGAAUCGGGAAAGGGUUUUUGGGUUUUUUUGGGAAAGUAUUAUGUUACGCCGUUCGGAUCUGCAC; result = -0.491
Strand = UCCUGUGCUACACAUCGUAUGUACCGAAUCGGGUUUUUUUGGGUUUUUUUGGGAAAGGGAAAGUAUUAUGUUACGCCGUUCGGAUCUGCA; result = -0.289
Strand = GUCCUGUGCUACACAUCGUAUGUACCGAAUCGGUUUUUGGGGUUUUUGGUUUUUGGGGAAAGUAUUAUGUUACGCCGUUCGGAUCUGCAC; result = -0.81
Strand = GUCCUGUGCUACACAUCGUAUGUACCGAAUCGGGGCCCCCGGGCCCCCGGGGCCCCCGGAAAGUAUUAUGUUACGCCGUUCGGAUCUGCA; result = -1.32
Strand = UCAAGUCCUGUGCUACACAUCGUAUGUACCGAAUCGGUGGAAAGGUUUUUUUGGAAAGUAUUAUGUUACGCCGUUCGGAUCUGCACUUCC; result = -0.943
Strand = GCAGGAAGUAAAAACAAAUGGAAAUGCUUCGGAUAGUGGCAGGGCUGGGGGUUGCUAAGGAAAGGGUGGGAUGGGAGUGGGUAAAGAGUU; result = 0.977

Series 2 — technique: RNA Bind-n-Seq; molecule type: RNA; sample: in vitro; tested at: not given; relative to: input RNA pool; reading: higher = stronger binding; quantity: bound/input enrichment
Target: RING finger protein unkempt homolog, zinc fingers 1-6, GST-SBP tag (UNK, Homo sapiens, UniProt Q9C0B0, residues 30-357)
UniProt Q9C0B0, sequence (30-357, looked up): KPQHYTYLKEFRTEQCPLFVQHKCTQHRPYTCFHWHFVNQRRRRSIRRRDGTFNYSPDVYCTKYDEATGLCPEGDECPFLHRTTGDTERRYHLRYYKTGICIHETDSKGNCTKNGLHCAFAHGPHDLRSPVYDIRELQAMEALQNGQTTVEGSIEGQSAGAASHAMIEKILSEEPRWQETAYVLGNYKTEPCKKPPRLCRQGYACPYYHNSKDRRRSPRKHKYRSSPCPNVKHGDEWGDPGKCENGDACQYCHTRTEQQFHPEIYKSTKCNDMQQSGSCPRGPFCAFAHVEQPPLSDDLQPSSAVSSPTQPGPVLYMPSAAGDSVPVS
Notes: RNA with constant flanks, human-mouse chimeric sites, ends assumed
All sequences stand within: GGGAGUUCUACAGUCCGACGAUC … CAACAGAGGAUUGAGCAUCA
Strand = UAAGUUAUUUUGUACAGCUUUGUAAAUUCUUAACAUUUUUAUAUUGCACAUUUUAUGUUGUUUGGGUGCUUUAUUAAAUUAAGUACAUAGCUAAGGUAAUGAACAUCUUUUUCAGUAAUU; result = 0.719 ratio
Strand = GAUAAGAAAAGCUUGUUGGAGACCCGAUUGCAUGUCACUGGUAGAGACCUGAGGUGUCAAAUAGCUGAAACUUUCGGAUUUCAAGAAAAUUACAUCAAGAUCGUAAUAAAUAAGAAACAG; result = 0.252 ratio
Strand = AAAGAACCUCUCUCUGAUGAAGAUGAGGACAGUGAUGAUGAUGUUGAACCCAUUUCUGAAUUUCGAUUUGUGCCUAGUGAUAAGUCAGCAUUGGAGGCGAUGUUCACAGCAAUGUGUGAG; result = 0.326 ratio
Strand = UUACCCGAAAAUGAAGAUGAGCUGGAGAGCACCAACAGGCGCUACACCAAGAGGGACUGCAGCACUUUCCUCAGAACUAGUGAGACGGGCAUCGUGGAUCAGGUUAUGGUCACUCUCAAC; result = 0.17 ratio
Strand = CUGAGGAUACCACUGAAGAGACCUUAAAAGAAUCAUUUGAGGGCUCUGUUCGUGCAAGAAUAGUCACUGAUCGGGAAACUGGUUCUUCCAAAGGGUUUUGGUUUUGUAGACUUCAACGUG; result = 0.33 ratio
Strand = GACUUUGGGACUGGUCCUCGCAACGCAGCCUACUAUAGCCCUCAUGGACAUAUAUUAGUGCUGGCUGGAUUUGGAAAUCUUCGAGGACAAAUGGAAGUAUGGGAUGUUAAAAACUACAAG; result = 0.415 ratio
Strand = CGCUGGCCCAAGCUGAUGGACUCUGAUCUUGAUCUCUUCUCAGGCACGUGUGCCUUCUCUUAGUCCCUGUUUUCGGGUCACAAAGCUUCUCAGUACUGUGGUUUGAAAGCACCAGCUUUG; result = 0.135 ratio
Strand = GAGCCCAGUCGGCAGUUUGUAAAGGACUCAAUUCGGCUGGUUAAAAGAUGCACCAAACCUGAUAGAAAAGAAUUCCAGAAGAUUGCCAUGGCUACAGCUAUAGGAUUUGCUAUCAUGGGA; result = 0.314 ratio
Strand = AAAAUAGACUAUGGCGAGUACAUGGAUAAAAAUAAUGUGAGGCGGCAAGCAACAACAAUCAUAGCUGAUAACAUUAUAUUUCUGAGUGACCAGACAAAAGAAAAGGCAUAGAACGGAUGA; result = 2.46 ratio
Strand = UGGCGCCUGCGCUCCCCACUCGUGUUUUUAAGUGUAUAAGAUGUAUACAUGUGUAUUUACAAUUGAGCUUUUGUUACAUAAUGCUGAAAUGCUACUGGAGAUUAUGAAAAAUGUUUCAAU; result = 0.135 ratio
Strand = UUCAAAGGCUGUGUUAUCUGUGUCAUUACUUGGGAGACUCUGGGGGAGGGAAAUUCUGUUCUUUUGUUUAAUUUUCCCCCAAAUGAAGCCAAAGUGUGUGUUGAAGAACUGAGAAAAAAU; result = 0.22 ratio

Series 3 — technique: protein-binding microarray; molecule type: double-stranded DNA, one strand shown; sample: in vitro; tested at: 2200 nM top; notes: 60-bp whole probe; added: salmon DNA 0.4 mg/ml; relative to: random background probes; reading: higher = stronger binding; quantity: fitted relative affinity; all sequences stand within: GCCTAGCAC … GTCTTGATTCGCTTGACGCTGCTG
Target: Interferon regulatory factor 7, full length, phosphomimetic (IRF7, Homo sapiens, UniProt Q92985, residues 1-503, S471D/S472D/S475D/S476D/S477D/S483D/S484D/S487D)
UniProt Q92985, sequence (whole entry, unmodified, looked up): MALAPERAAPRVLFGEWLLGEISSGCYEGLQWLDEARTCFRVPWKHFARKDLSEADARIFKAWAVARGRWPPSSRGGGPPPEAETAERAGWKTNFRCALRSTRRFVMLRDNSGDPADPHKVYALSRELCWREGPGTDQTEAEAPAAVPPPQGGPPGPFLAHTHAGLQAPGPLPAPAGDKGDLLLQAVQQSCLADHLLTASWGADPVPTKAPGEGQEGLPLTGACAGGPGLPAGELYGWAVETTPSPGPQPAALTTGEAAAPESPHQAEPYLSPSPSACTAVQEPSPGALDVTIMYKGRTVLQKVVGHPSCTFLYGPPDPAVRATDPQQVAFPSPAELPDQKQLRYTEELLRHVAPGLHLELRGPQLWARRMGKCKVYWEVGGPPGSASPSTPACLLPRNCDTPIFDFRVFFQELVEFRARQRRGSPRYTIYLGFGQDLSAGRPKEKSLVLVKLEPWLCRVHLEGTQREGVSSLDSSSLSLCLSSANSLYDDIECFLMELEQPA
Strand = GACGGACTGAGTTTCGAGACGTGCTAG; result = 1.88 z-score
Strand = TCATGAATGTGTCTTAAACTGTGCTAG; result = 0.375 z-score
Strand = TCAAGTCCCACATCTCTGACTGTGCTA; result = 0.946 z-score
Strand = TTTCTTTTGCTTGTTCTTAGCGTGCTA; result = 4.05 z-score
Strand = GACGAACTGAGTCTCGAGATGTGCTAG; result = 0.076 z-score
Strand = CATCCGTTTCTTCTAGACTTGTGCTAG; result = 2.92 z-score
Strand = TTAGATATCAGTTTCCATTAGTGCTAG; result = 2.29 z-score
Strand = TTAGGAATGGGGTATCGGTTAGTGCTA; result = 0.0701 z-score
Strand = GACGATTTCAGTTCCGTGACGTGCTAG; result = 2.1 z-score
Strand = TTAGGTTTCAGTTCCGGTTAGTGCTAG; result = 4.41 z-score
Strand = TCATATCTGTGTTATTAAACTGTGCTA; result = 1.16 z-score
Strand = TTAGGACTGGGGTTTAGGTTAGTGCTA; result = -0.271 z-score
Strand = GACGTTTTCCTTTCCCTGACGTGCTAG; result = 5.09 z-score
Strand = CCTCCCTCTCCCGGAGTTCCGTGCTAG; result = 0.452 z-score
Strand = GATGGACTGGGGACTGGGGACGTGCTA; result = -0.502 z-score
Strand = GACGGTATCGGGTTTCGGAACGTGCTA; result = 2.11 z-score
Strand = CTAGGTCTCGGTATCGGTTAGTGCTAG; result = 0.905 z-score

Series 4 — technique: protein-binding microarray; molecule type: double-stranded DNA, one strand shown; sample: in vitro; tested at: not given; reading: higher = stronger binding; quantity: E-score
Target: Protein C-ets-1 (ETS1, Homo sapiens, UniProt P14921, residues 1-441, Y397A, full length assumed)
UniProt P14921, sequence (whole entry, unmodified, looked up): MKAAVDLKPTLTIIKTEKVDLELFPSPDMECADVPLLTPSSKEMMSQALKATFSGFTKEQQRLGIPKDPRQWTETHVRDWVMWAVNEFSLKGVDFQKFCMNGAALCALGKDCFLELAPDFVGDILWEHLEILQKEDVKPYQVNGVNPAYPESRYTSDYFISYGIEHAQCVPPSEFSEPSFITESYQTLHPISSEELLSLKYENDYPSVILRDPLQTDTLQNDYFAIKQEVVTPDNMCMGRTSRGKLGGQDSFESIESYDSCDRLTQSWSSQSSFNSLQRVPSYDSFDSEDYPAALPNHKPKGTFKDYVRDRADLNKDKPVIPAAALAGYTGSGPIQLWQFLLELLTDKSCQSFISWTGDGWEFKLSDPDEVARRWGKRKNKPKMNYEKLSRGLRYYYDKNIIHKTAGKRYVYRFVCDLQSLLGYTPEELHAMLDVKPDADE
Notes: k-mer, scored over probes, only values ≥0.25
Strand = CGCCCCGC; result = 0.261
Strand = GGGACAAA; result = 0.251
Strand = ACCGCAAC; result = 0.266
Strand = CGGATATA; result = 0.35
Strand = GGATGGCA; result = 0.286
Strand = GGCTACGA; result = 0.251
Strand = CCCGGAAA; result = 0.328
Strand = CCGGATAC; result = 0.315
Strand = CCGCGCGG; result = 0.351
Strand = GTATACAA; result = 0.266
Strand = GGTTGTCA; result = 0.315

For quick reference, copied from above (series 2):
Strand = CGCUGGCCCAAGCUGAUGGACUCUGAUCUUGAUCUCUUCUCAGGCACGUGUGCCUUCUCUUAGUCCCUGUUUUCGGGUCACAAAGCUUCUCAGUACUGUGGUUUGAAAGCACCAGCUUUG; result = 0.135 ratio
Strand = UAAGUUAUUUUGUACAGCUUUGUAAAUUCUUAACAUUUUUAUAUUGCACAUUUUAUGUUGUUUGGGUGCUUUAUUAAAUUAAGUACAUAGCUAAGGUAAUGAACAUCUUUUUCAGUAAUU; result = 0.719 ratio
Strand = UUCAAAGGCUGUGUUAUCUGUGUCAUUACUUGGGAGACUCUGGGGGAGGGAAAUUCUGUUCUUUUGUUUAAUUUUCCCCCAAAUGAAGCCAAAGUGUGUGUUGAAGAACUGAGAAAAAAU; result = 0.22 ratio
Strand = GAUAAGAAAAGCUUGUUGGAGACCCGAUUGCAUGUCACUGGUAGAGACCUGAGGUGUCAAAUAGCUGAAACUUUCGGAUUUCAAGAAAAUUACAUCAAGAUCGUAAUAAAUAAGAAACAG; result = 0.252 ratio
Strand = UUACCCGAAAAUGAAGAUGAGCUGGAGAGCACCAACAGGCGCUACACCAAGAGGGACUGCAGCACUUUCCUCAGAACUAGUGAGACGGGCAUCGUGGAUCAGGUUAUGGUCACUCUCAAC; result = 0.17 ratio
Strand = AAAGAACCUCUCUCUGAUGAAGAUGAGGACAGUGAUGAUGAUGUUGAACCCAUUUCUGAAUUUCGAUUUGUGCCUAGUGAUAAGUCAGCAUUGGAGGCGAUGUUCACAGCAAUGUGUGAG; result = 0.326 ratio
Strand = UGGCGCCUGCGCUCCCCACUCGUGUUUUUAAGUGUAUAAGAUGUAUACAUGUGUAUUUACAAUUGAGCUUUUGUUACAUAAUGCUGAAAUGCUACUGGAGAUUAUGAAAAAUGUUUCAAU; result = 0.135 ratio
Strand = GAGCCCAGUCGGCAGUUUGUAAAGGACUCAAUUCGGCUGGUUAAAAGAUGCACCAAACCUGAUAGAAAAGAAUUCCAGAAGAUUGCCAUGGCUACAGCUAUAGGAUUUGCUAUCAUGGGA; result = 0.314 ratio
